Results of several laboratories.
Values joined by “and” are separate records of one study, mostly repeats; a detail may differ.
Target: Macrophage-stimulating protein receptor (MST1R, Homo sapiens, UniProt Q04912)
UniProt Q04912, sequence (whole entry, looked up): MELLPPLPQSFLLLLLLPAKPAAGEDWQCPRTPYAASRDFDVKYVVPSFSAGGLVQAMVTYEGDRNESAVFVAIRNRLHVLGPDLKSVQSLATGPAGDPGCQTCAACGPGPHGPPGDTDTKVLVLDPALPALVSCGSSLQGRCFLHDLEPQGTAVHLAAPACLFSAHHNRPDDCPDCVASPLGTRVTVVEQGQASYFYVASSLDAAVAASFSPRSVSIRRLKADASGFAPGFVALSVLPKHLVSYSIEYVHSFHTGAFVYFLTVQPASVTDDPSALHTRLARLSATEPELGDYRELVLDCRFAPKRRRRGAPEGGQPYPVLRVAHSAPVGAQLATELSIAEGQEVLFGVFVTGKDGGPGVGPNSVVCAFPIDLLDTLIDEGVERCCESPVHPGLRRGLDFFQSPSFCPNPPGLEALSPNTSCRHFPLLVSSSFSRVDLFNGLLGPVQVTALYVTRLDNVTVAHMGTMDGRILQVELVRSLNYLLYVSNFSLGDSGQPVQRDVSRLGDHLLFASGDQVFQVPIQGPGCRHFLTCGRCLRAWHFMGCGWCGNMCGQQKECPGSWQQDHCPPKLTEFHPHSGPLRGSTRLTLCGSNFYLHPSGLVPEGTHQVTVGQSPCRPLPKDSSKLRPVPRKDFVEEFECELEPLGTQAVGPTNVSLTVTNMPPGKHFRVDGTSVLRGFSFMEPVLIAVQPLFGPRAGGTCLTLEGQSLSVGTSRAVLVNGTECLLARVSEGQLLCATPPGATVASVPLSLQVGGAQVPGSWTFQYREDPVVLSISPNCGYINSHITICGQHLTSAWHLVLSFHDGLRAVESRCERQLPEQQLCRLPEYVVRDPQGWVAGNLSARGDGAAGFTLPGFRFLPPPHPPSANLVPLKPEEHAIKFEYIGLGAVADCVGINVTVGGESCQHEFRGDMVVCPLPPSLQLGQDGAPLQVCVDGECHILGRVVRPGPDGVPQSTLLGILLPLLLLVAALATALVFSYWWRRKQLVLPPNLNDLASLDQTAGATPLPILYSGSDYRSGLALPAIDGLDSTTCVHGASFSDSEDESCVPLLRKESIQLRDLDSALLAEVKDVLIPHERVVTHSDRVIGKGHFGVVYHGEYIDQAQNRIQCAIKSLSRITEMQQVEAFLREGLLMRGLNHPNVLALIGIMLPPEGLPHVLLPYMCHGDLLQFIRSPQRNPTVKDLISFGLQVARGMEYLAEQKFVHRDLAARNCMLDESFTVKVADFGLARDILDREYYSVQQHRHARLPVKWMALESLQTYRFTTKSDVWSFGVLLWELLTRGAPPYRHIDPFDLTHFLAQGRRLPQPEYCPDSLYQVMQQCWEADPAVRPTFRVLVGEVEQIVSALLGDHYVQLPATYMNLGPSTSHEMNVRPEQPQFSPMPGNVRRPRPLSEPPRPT

SMILES | test | setting | scale | endpoint | value
O=C(Cc1ccc(OCc2ccccc2)cc1)NC1(C(=O)O)CCN(C(=O)c2ccc(-c3cccc(Cl)c3)cc2)CC1 | enzyme activity, inhibitor | 10 µM | – | activity vs control | 100%
Nc1ncc2c(n1)-c1c([nH]c3ccc(C4=CCOCC4)cc13)CCC2 | binding, competition with immobilised ligand | 1 µM | – | remaining binding | 85%
COCC12C(=O)NC3C4(C(OC)CC1O)C1CC5(O)C(OC)C(O)C(OC(C)=O)(C1C5OC(=O)c1ccccc1)C3(O)C(OC)C24 (centres unmarked) | kinase activity, inhibitor, ProQinase kinase profiling | 25 µM | reference: control | remaining activity | 80% and 98%
COc1c(OCCCN2CCOCC2)ccc2c1N=C(NC(=O)c1cnc(N)nc1)N1CCN=C21 | kinase activity, inhibitor | 1 µM | reference: untreated control | remaining activity | 122%
NC(=O)[C@@H](O)C[C@H]1CCc2sc3ncnc(O[C@H]4CC[C@H](N5CCOCC5)CC4)c3c21 | enzyme activity, inhibitor | 10 µM | – | inhibition | 5%
CCn1cc(C(=O)O)c(=O)c2c(N)c(F)c(NC3CCCCC3)cc21 | kinase activity | 0.1 µM, added: ATP at Km | – | inhibition | -10.2%
COc1ccc(NC(=O)Nc2ccc3c(c2)C(=O)N(C(C)CO)CC(C)C(CN(C)Cc2ccc4c(c2)OCO4)O3)cc1 (centres unmarked) | kinase activity, KinaseProfiler | 0.03 µM, species human | reference: control | remaining activity | 94%
CNC1C[S+]2CC[S+]3CC[S+](C1)[Ru-4]321([N]=C=S)[n]2c3ccc(OC)cc3c3c4c(c5cc(F)c[n+]1c5c32)C(=O)NC4=O (centres unmarked) | KinomeScan | 0.1 µM | reference: untreated | remaining binding | 96%
COc1cc(Nc2nccc(-c3cnn4nc(OC)ccc34)n2)cc(C(F)(F)F)c1 | binding, competition with immobilised ligand | 1 µM | – | remaining binding | 100%
Cc1cccc(O[C@H]2CCC[C@@H](C(C)CNCc3ccncc3)C2)c1 (relative stereo) | cell-free assay | 1 µM | – | inhibition | 9%
CNC(=O)C1CCN(c2cc(C)c(F)cc2NC(=O)c2ccc(-c3cc(O)ccc3C)c(C)c2)CC1 | binding, competition with immobilised ligand | 1 µM | – | remaining binding | 99%
CCN1CCN(Cc2ccc(C(=O)Nc3ccc(C)c(NCc4cnc5[nH]ccc5c4OC)c3)cc2C(F)(F)F)CC1 | binding, competition with immobilised ligand | 1 µM | – | remaining binding | 100%
C=CC(=O)N1CCc2ccc(-n3c(=O)ccc4cnc5ccc(-c6cnn(C)c6)cc5c43)cc21 | KINOMEscan | 1 µM | reference: DMSO control | remaining binding | 100%
C=CC(=O)Nc1cccc(-c2cnc3[nH]cc(C(=O)NC(C)(C)C)c3n2)c1 | enzyme activity, inhibitor | 0.1 µM | – | inhibition | 19%

A few entries again:
SMILES | test | setting | scale | endpoint | value
CNC1C[S+]2CC[S+]3CC[S+](C1)[Ru-4]321([N]=C=S)[n]2c3ccc(OC)cc3c3c4c(c5cc(F)c[n+]1c5c32)C(=O)NC4=O (centres unmarked) | KinomeScan | 0.1 µM | reference: untreated | remaining binding | 96%
COc1cc(Nc2nccc(-c3cnn4nc(OC)ccc34)n2)cc(C(F)(F)F)c1 | binding, competition with immobilised ligand | 1 µM | – | remaining binding | 100%
